Measurements pooled from the literature.
A part holds a random share of what one study measured.
UniProt P42336, sequence (whole entry, unmodified, looked up): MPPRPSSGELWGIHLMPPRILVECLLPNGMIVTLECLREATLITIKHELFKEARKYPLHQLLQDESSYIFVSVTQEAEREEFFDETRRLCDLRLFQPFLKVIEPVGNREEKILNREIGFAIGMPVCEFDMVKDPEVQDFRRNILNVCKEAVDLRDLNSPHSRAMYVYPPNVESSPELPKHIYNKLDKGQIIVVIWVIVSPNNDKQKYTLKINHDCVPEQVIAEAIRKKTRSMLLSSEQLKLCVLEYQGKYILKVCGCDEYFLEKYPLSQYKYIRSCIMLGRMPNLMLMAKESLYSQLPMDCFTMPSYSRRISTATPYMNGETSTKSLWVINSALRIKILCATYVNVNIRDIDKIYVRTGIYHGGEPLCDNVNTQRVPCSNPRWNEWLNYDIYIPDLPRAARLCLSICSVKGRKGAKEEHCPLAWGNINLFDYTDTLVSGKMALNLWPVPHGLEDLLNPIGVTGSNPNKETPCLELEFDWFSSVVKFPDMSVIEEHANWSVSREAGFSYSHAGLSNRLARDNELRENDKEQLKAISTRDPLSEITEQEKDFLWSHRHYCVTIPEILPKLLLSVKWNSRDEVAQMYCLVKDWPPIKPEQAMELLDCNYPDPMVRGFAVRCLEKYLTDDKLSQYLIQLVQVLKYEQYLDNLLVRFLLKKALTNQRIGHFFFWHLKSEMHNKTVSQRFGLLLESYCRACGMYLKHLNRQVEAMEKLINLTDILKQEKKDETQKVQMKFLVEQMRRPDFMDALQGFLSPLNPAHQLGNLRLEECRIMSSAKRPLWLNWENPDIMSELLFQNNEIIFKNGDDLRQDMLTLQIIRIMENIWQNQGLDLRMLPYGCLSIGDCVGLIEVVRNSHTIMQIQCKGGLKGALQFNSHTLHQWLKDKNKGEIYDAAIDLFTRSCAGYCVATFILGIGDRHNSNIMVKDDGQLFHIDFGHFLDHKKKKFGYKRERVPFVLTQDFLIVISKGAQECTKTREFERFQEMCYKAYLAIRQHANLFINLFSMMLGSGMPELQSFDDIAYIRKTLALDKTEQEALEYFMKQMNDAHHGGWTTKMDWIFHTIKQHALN
UniProt P31152, sequence (whole entry, looked up): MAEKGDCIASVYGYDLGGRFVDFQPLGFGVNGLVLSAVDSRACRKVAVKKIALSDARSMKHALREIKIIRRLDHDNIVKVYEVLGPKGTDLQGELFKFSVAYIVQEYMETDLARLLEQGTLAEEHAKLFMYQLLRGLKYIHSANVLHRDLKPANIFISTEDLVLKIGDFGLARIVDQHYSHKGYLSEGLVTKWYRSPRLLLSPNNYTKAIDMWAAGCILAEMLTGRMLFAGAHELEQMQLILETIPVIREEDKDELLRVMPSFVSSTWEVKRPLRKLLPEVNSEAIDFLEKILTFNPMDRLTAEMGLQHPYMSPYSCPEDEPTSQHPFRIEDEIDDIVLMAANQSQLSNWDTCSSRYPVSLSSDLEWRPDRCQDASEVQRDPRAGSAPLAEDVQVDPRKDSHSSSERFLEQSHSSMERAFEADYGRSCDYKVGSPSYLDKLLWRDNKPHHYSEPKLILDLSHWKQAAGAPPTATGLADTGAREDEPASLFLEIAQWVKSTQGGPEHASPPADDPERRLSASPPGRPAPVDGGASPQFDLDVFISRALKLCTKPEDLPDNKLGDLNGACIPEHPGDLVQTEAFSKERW
UniProt Q13237, sequence (whole entry, looked up): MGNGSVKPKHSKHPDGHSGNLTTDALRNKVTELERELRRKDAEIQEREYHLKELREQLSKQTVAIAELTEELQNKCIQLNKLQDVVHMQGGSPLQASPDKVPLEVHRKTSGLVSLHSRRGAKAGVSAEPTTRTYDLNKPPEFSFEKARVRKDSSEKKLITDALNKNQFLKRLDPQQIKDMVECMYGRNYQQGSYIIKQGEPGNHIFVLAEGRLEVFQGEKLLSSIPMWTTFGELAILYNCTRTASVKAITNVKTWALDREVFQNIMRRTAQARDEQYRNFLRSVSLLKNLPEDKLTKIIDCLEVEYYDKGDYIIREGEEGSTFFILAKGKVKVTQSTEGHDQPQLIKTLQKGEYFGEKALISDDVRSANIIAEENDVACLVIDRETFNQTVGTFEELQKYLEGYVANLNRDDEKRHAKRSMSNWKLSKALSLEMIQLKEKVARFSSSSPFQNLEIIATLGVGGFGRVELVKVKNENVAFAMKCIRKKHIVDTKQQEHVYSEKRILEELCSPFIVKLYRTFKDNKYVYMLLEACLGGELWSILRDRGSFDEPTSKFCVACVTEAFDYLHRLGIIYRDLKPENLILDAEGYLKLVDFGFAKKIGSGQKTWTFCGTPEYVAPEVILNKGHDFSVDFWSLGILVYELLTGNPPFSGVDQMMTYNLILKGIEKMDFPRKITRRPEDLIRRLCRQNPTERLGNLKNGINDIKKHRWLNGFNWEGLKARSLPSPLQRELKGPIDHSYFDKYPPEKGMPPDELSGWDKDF
UniProt P15056, sequence (whole entry, unmodified, looked up): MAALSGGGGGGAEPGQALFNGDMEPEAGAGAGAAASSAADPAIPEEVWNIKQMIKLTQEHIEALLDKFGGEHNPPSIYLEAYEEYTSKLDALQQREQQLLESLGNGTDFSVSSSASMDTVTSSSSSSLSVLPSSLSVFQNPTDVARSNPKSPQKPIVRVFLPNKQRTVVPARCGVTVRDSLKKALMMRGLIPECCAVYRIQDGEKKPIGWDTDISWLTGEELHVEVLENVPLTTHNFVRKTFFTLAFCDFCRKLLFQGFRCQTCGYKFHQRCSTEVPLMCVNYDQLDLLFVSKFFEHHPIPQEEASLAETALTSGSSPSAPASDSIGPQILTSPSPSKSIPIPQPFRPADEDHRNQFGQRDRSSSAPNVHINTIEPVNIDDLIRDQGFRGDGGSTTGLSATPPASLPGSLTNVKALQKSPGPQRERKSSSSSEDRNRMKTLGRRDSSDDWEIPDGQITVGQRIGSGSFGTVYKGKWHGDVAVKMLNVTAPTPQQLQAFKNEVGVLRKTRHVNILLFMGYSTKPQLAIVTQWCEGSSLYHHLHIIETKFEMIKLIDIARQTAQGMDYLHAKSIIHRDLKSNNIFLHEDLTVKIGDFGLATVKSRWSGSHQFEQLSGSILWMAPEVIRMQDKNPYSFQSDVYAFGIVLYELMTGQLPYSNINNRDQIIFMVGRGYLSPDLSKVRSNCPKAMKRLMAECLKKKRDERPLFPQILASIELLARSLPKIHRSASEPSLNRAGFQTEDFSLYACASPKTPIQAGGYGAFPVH
UniProt P43403, sequence (whole entry, looked up): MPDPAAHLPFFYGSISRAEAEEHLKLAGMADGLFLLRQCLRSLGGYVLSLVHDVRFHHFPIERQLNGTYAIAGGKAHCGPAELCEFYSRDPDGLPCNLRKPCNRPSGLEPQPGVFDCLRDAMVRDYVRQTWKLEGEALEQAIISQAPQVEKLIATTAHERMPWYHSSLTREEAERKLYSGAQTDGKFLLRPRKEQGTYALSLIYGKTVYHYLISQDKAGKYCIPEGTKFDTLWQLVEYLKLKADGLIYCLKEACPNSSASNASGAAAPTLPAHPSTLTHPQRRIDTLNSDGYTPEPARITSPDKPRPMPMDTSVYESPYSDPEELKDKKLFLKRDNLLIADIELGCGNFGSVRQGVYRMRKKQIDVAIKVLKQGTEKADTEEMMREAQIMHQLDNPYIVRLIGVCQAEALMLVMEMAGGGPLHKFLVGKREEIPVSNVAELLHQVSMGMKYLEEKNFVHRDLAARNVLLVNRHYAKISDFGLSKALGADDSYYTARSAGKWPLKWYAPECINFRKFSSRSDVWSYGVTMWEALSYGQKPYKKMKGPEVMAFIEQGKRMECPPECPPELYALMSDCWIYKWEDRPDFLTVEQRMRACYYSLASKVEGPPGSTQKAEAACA
UniProt P36894, sequence (whole entry, looked up): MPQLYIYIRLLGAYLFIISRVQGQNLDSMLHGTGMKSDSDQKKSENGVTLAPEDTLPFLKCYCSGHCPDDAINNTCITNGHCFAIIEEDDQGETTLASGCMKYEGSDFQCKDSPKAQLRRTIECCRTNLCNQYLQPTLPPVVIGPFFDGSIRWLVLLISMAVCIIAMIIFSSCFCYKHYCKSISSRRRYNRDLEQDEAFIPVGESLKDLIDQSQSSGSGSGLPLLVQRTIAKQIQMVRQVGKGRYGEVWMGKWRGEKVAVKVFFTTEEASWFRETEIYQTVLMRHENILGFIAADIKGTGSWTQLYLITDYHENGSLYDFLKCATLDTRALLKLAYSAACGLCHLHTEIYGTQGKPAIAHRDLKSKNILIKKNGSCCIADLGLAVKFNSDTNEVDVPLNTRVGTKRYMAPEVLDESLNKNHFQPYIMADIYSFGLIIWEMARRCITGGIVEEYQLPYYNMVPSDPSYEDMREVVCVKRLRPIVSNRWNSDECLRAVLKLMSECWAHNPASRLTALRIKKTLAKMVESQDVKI

Series 1
Organism: Sarcocystis neurona
Observed: parasite growth
Tested at: 10 µM
Structure (SMILES) | inhibition [%]
COc1ccc([C@@H]2Sc3ccccc3N(CCN(C)C)C(=O)[C@@H]2OC(C)=O)cc1 | 2.1
NS(=O)(=O)c1cc2c(cc1C(F)(F)F)NC(Cc1ccccc1)NS2(=O)=O (stereo not drawn) | -22.4
CC(C)/N=c1\cc2n(-c3ccc(Cl)cc3)c3ccccc3nc-2cc1Nc1ccc(Cl)cc1 | 97.2
COc1cccc2c1C(=O)c1c(O)c3c(c(O)c1C2=O)C[C@@](O)(C(=O)CO)C[C@@H]3O[C@H]1C[C@H](N)[C@H](O)[C@H](C)O1 | 54.4
CN(CCO)CC(O)Cn1cnc2c1c(=O)n(C)c(=O)n2C.O=C(O)c1cccnc1 (stereo not drawn) | -19.4
C[n+]1ccccc1/C=N/O | -28.9

Series 2
SMILES: COc1cc(-c2cn(C3CCc4ccccc4N(CC(F)(F)F)C3=O)nn2)ccc1-n1ccc(C)n1 (stereo not drawn)
Method: competition with immobilised ligand
Tested at: 1 µM
target | observed | remaining binding
Serine/threonine-protein kinase Chk1 (CHEK1, Homo sapiens, UniProt O14757) | cell-free assay | 100%
Mitogen-activated protein kinase 4 (MAPK4, Homo sapiens, UniProt P31152) | cell-free assay | 99%
Leucine-rich repeat serine/threonine-protein kinase 2 (LRRK2, Homo sapiens, UniProt Q5S007, G2019S) | cell-free assay | 100%
Bone morphogenetic protein receptor type-1A (BMPR1A, Homo sapiens, UniProt P36894) | binding | 89%
Protein-tyrosine kinase 2-beta (PTK2B, Homo sapiens, UniProt Q14289) | cell-free assay | 100%
Phosphatidylinositol 4,5-bisphosphate 3-kinase catalytic subunit alpha isoform (PIK3CA, Homo sapiens, UniProt P42336, E545K) | cell-free assay | 84%
Mitogen-activated protein kinase kinase kinase kinase 1 (MAP4K1, Homo sapiens, UniProt Q92918) | cell-free assay | 100%
Tyrosine-protein kinase Mer (MERTK, Homo sapiens, UniProt Q12866) | cell-free assay | 100%
Serine/threonine-protein kinase B-raf (BRAF, Homo sapiens, UniProt P15056, V600E) | cell-free assay | 97%

Series 3
Target: Mitogen-activated protein kinase 8 (MAPK8, Homo sapiens, UniProt P45983)
UniProt P45983, sequence (whole entry, looked up): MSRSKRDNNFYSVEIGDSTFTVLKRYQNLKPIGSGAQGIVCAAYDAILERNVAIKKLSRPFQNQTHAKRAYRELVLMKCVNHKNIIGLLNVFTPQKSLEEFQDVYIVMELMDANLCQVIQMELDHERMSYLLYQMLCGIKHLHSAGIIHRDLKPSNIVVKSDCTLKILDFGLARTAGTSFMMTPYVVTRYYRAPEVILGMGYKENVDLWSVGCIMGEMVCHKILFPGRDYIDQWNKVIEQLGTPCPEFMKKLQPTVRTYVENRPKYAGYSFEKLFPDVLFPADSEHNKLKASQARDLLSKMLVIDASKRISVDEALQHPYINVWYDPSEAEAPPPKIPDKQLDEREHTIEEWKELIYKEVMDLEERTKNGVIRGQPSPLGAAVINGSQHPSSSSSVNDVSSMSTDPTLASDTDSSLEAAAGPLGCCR
Observed: enzyme activity
Mode: inhibitor
Tested at: 0.5 µM
Reference: control
SMILES | remaining activity [%]
O=C1NC(=O)C(c2cn(CCCn3ccnc3)c3ccccc23)=C1Nc1ccccc1 | 99.6
O=S(=O)(c1cccc2cnccc12)N1CCCNCC1 | 89.7
O=C(Nc1cccc(Nc2cc(Nc3cccc(C(F)(F)F)c3)ncn2)c1)C1CC1 | 93.4
N#CC(C#N)=C(N)/C(C#N)=C/c1ccc(O)cc1 | 100
Nc1ccc2ncnc(NCCc3ccc(Oc4ccccc4)cc3)c2c1 | 104
Cn1sc(=O)n(Cc2ccccc2)c1=O | 85.5
COc1ccc(OC)c2c(=S)c3ccccc3[nH]c12 | 96.8
COc1ccc(C(=O)Nc2sc3c(c2C(N)=O)CCCC3)cc1OC | 94.7
O=C(CCCc1ccc(-c2ccccc2F)cc1)Nc1ccc(O)cc1 | 103
OCC(O)CCON=C1C(c2c(O)[nH]c3ccccc23)=Nc2ccccc21 (stereo not drawn) | 101
COc1cc2ncnc(Nc3ccc(Oc4ccccc4)cc3)c2cc1OC | 91.8
Oc1ccc(-c2nc(-c3ccncc3)c(-c3ccc(F)cc3)[nH]2)cc1 | 98
CN(C)c1ccc(C=C2C(=O)Nc3ccccc32)cc1 | 103
Cn1c2ccccc2c2c3c(c4c5ccccc5n(CCC#N)c4c21)CNC3=O | 78.7
COc1cc2nccc(Oc3ccc(NC(=S)NC(=O)c4ccccc4C)cc3)c2cc1OC | 81.3

Series 4
SMILES: C[C@H]1CC[C@H](n2c3cnccc3c3cnc(Nc4ccc5c(n4)CCN(C(=O)CO)C5)nc32)CC1
Observed: cell-free assay
Tested at: 1 µM
target | remaining signal [%]
Tyrosine-protein kinase ZAP-70 (ZAP70, Homo sapiens, UniProt P43403) | 100
Phosphatidylinositol 4,5-bisphosphate 3-kinase catalytic subunit alpha isoform (PIK3CA, Homo sapiens, UniProt P42336) | 100
Mitogen-activated protein kinase kinase kinase 1 (MAP3K1, Homo sapiens, UniProt Q13233) | 100
Phosphatidylinositol 4,5-bisphosphate 3-kinase catalytic subunit alpha isoform (PIK3CA, Homo sapiens, UniProt P42336, C420R) | 58
Dual specificity mitogen-activated protein kinase kinase 4 (MAP2K4, Homo sapiens, UniProt P45985) | 5.8
Myosin light chain kinase, smooth muscle (MYLK, Homo sapiens, UniProt Q15746) | 100
cGMP-dependent protein kinase 2 (PRKG2, Homo sapiens, UniProt Q13237) | 100
Serine/threonine-protein kinase Nek3 (NEK3, Homo sapiens, UniProt P51956) | 100
Mitogen-activated protein kinase 4 (MAPK4, Homo sapiens, UniProt P31152) | 90

Excerpt of the above (series 2):
target | observed | remaining binding
Bone morphogenetic protein receptor type-1A (BMPR1A, Homo sapiens, UniProt P36894) | binding | 89%
Protein-tyrosine kinase 2-beta (PTK2B, Homo sapiens, UniProt Q14289) | cell-free assay | 100%
Phosphatidylinositol 4,5-bisphosphate 3-kinase catalytic subunit alpha isoform (PIK3CA, Homo sapiens, UniProt P42336, E545K) | cell-free assay | 84%
Mitogen-activated protein kinase kinase kinase kinase 1 (MAP4K1, Homo sapiens, UniProt Q92918) | cell-free assay | 100%
Tyrosine-protein kinase Mer (MERTK, Homo sapiens, UniProt Q12866) | cell-free assay | 100%
Serine/threonine-protein kinase B-raf (BRAF, Homo sapiens, UniProt P15056, V600E) | cell-free assay | 97%
